# Published values of several laboratories.
# Each numbered part is a random draw from the data of one study; scales do not carry over between parts.

# Sample 1 — technique: RNA Bind-n-Seq; molecule type: RNA; matrix: in vitro; concentration: 365 nM; reference: no-protein control; direction: higher = stronger binding
# Target: RNA binding protein fox-1 homolog 2, RRM domain, GST-SBP tag (RBFOX2, Homo sapiens, UniProt O43251-10, residues 100-194)
# Setting: natural RNA segment, single round, ends assumed
# Shared flanks, not repeated: GGGAGUUCUACAGUCCGACGAUC … UGGAAUUCUCGGGUGCCAA
# Residues (chain): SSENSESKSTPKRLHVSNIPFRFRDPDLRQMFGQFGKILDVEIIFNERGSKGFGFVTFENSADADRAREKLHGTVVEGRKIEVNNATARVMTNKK
Strand,RBNS enrichment (R)
UGGUUUGUGUAGGAGUUCCCUGUAGAUAAAUUACUGGUCCCCCAACCACUAUCCCCAGUAUGUAAUGGCUGAAUUAAUAUGUAAUCAACUGCAUUGUAUCUAAAGCCUUA,0.611
UGUGGUAGGCCUUUUAACAUUUUGUUCUUACACAUACAGUUUUAUGCUCUUUUUUACUCAUUGAAAUGUCAUGUGUUGUCUGAUUGGCUUGUAGAAUUGUUAUAGAUUAC,0.46
UUCAGAAGGCAACAGGGAGUCCCUAAGAAUGUUUUUCAAAAAGGGACAUUAAGGCGAUUGGAGUUAUACUUGGAAAAGAAAGUUCUGGCCACAGUACAGAGCAUGGCCCG,0.842
GUUAAUAAGUCAUUAACCGCUCAGUACCAGAUGUGGCAAAUCUCAAGUGAUUGUGGACUCCUGGCUCAUCAACUCAUGCCCUCUUCCAUACCCUCAUGGCUUCACAGUCA,0.523
GAGGGCGACAUGAAGAUGCACUGCUGCGUGGCCGCCUAUAUCUCCGACUAUGCCUUCUUGGGCACUGCACUGCUGCCUCACCAGUGGCAGCACAAGGUGCACUUCAUGGU,0.531
UCAGGGUCAGAGCCCCUGAUCUGCUGAUGUUUGGUUGGGUGUCCAUGAGGGCCCCUCCCACCCAGUAUUUGUGGAGUCCAGGCGCCUGCCCUGUUUCAUGCCAGGGCCAC,0.215
CUGUGACCUUUCUUAUUUCCCUGUUAUCAAGGAAACAGUUUUACCUAUUGAGCUAUAAAAAAAAAAAAAAAAAAACCUCUUUAGAUGUUUGCCUCAACAUUCUUUGUCAU,0.948
GCCAUGUGUUAAUUGUUAAAUAAAUUCUCCAAAGGGCUAAAAGUAAAUUACUUAUAAAUUUUUUAUAGUUGUAUUUUUGACCUGCCUUUUAUAUGUAUGAAUAUUUCAUA,1.13

# Sample 2 — technique: RNA Bind-n-Seq; molecule type: RNA; matrix: in vitro; concentration: not given; reference: input RNA pool; direction: higher = stronger binding
# Target: RING finger protein unkempt homolog, zinc fingers 1-6, GST-SBP tag (UNK, Homo sapiens, UniProt Q9C0B0, residues 30-357)
# UniProt Q9C0B0, sequence (30-357, looked up): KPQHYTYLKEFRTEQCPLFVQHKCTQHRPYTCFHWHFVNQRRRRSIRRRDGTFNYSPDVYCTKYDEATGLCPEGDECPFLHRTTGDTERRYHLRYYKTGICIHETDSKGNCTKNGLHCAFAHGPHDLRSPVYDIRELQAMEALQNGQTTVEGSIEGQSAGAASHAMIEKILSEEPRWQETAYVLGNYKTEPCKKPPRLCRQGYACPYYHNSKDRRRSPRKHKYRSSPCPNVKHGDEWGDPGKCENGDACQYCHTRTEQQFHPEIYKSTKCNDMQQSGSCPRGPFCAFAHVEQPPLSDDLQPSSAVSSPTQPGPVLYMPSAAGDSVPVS
# Setting: RNA with constant flanks, human-mouse chimeric sites, ends assumed
# Shared flanks, not repeated: GGGAGUUCUACAGUCCGACGAUC … CAACAGAGGAUUGAGCAUCA
Strand,bound/input enrichment [ratio]
AAAGCCCAAGUAUUUUGAAAAAAUUCAAACAGAUUUGACAAGGGUAGCCAGCUUGGAGUCUAGCAAUUUGCCAAUGUGUUUACCAAUCUGGGGGCUUGUUUUUCUUUUCUUCUUUCAAAU,0.563
ACACAAUAUGAGACCAACAGCAUGGACUUCAAAGUCGGGGCAGAUGGGACAGUCUUCGCCACCCGGGAGCUGCAGGUCCCCUCCGAGCAGGUGGCGUUCACGGUGACUGCAUGGGACAGC,0.247
UCUGGUCACACUCGUGUGUAUGGUGUUUGCUUUGUGGACACUUCACUGGGCAAGUUUUUCAUCGGCCAGUUUUCGGAUGAUCGCCAUUGUUCGAGAUUUAGGACGCUAGUGGCUCACUAU,0.231
UCUUAACUUAUUCAUUUAACUUAUUUUUAUAGCUAGAGCAAUAUUGUUAGUCUUAGACAAUAGCUCACAUUUUUUGAAAAGCAUGCUCUCCCUGUCCAUUUGUCUUAUAACAUGACCCAG,286
CUGUUUUACAGCCACACCAAUCUUGGCAUGUAUUAAGAAAAAAAAAAAUCCCUGUUGAAGUAGUUUUUCCACCUAUCAGCACUGAGUAAAUGCCAUAACUCCGCGGAAAUGGUCUAAAUA,0.217
CAGCCUCAGAGCCCAGACUUCCUGGAUAUCACCAACCCUAAAGCGGUAUUAGAAAAUGCAUUGAGAAACUUCGCCUGUCUGACGACUGGAGAUGUGAUUGCUAUCAACUACAAUGAGAAG,0.646
CUGAGGAUACCACUGAAGAGACCUUAAAAGGAGUCAUUGAGGGCUCUGUUCGUGCAAGAAUAGUCACCUGACCGGGAACUGGUUCUUCCAAAGGGUUUGGUUUUGUAGACUUUAAUAGUG,0.827
AGAUUCCCCCUCCUGAGACCUCCUCCGAAGUUGGAGUCUCUUACAGAUGCCUCAUCCCCUGUUAGUAUUUUAGUUUGGACCACCCAGCCUUGGACAAUUCCCGCCAACCAGGCAAUUUGC,2.4

# Sample 3 — technique: universal PBM; molecule type: double-stranded DNA, one strand shown; matrix: in vitro; concentration: 600 nM; direction: higher = stronger binding
# Target: Sal-like protein 4, full length isoform A (SALL4, Homo sapiens, UniProt Q9UJQ4, residues 1-1053)
# UniProt Q9UJQ4, sequence (whole entry, looked up): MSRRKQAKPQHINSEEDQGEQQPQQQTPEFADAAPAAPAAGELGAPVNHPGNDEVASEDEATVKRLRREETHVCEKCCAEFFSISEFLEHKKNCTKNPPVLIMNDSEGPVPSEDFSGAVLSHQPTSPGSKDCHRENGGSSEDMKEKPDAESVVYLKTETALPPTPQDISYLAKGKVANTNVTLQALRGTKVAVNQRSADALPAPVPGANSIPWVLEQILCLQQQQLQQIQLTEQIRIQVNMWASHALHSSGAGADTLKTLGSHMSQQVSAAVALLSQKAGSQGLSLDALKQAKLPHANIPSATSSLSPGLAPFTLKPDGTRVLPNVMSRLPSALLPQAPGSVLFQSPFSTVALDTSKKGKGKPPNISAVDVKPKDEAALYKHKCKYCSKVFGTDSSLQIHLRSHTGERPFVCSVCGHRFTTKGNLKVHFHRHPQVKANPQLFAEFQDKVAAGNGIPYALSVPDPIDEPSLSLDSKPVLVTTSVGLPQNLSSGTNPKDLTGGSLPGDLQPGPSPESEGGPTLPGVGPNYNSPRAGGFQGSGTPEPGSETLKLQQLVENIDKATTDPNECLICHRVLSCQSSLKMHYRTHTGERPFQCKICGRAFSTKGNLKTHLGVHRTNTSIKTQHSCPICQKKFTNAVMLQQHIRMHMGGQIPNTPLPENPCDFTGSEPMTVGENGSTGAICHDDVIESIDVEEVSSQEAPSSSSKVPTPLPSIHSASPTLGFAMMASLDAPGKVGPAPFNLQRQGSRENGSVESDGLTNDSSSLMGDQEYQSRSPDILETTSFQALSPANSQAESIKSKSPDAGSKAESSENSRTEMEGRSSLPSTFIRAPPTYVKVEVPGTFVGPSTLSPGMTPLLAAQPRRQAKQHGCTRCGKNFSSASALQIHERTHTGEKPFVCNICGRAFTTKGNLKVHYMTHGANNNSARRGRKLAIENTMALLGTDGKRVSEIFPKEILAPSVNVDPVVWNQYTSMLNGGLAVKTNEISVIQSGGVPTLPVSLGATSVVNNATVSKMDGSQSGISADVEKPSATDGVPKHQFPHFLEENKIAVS
# Setting: 8-mer, flanks averaged, mean of replicates
Strand,E-score
CGCCGACC,-0.379
AGCATCGA,0.0809
AAATAAGA,0.328
ATCTACGA,0.0287
CTGTTCTA,0.0609
TCACGCGA,-0.0908
GACTCGCC,-0.242
GGGGATAA,0.18
ACTATCCG,-0.0597
ATGGATCC,0.0506
ATTTCGGG,0.103
AACTACGC,0.0172
AAGGGCGC,-0.226
CCCTCCAA,-0.239
ATCTTCGA,0.163
CTCTCTAC,0.0446
CTACCTAG,0.0696
CCGGATAA,0.0392
CCTCCGAG,-0.289
GGCTGTGA,-0.177

# Sample 4 — technique: aptamer microarray, sandwich; molecule type: DNA with 2'F-ANA; matrix: in vitro; concentration: 200 nM; together with: Cy3 exosite-II aptamer, 400 nM; direction: higher = stronger binding; strand: GGTTGGTGTGGTTGG
# Target: Prothrombin, mature alpha-thrombin (F2, Homo sapiens, UniProt P00734)
# Setting: whole 15-mer aptamer, many near background
Modification,mean fluorescence intensity [a.u.]
2'F-ANA at 1 2 3 4 5 6 7 8 9 13 15,52.8
2'F-ANA at 1 2 5 6 11 14,51.9
2'F-ANA at 4 5 7 9 11 13,62.4
2'F-ANA at 2 4 5 7 11 12 13,76.7
2'F-ANA at 1 2 5 6 11 12 13 14 15,56.1
2'F-ANA at 4 6 8 9 10 11 15,70.5
2'F-ANA at 2 5 7 8 9 11 12 14,48.3
2'F-ANA at 4 7 9 10 12,130
2'F-ANA at 1 4 5 7 8 12 13,86.2
2'F-ANA at 1 2 4 6 7 10 14,43
2'F-ANA at 5 8 9 10 11 13 14,46
2'F-ANA at 1 3 6 9 11 12 14,89.7
2'F-ANA at 1 2 8 9 10 13 14,48.7
2'F-ANA at 2 7 8 13 15,420
2'F-ANA at 1 5 8 11,51.8
2'F-ANA at 4 5 7 8 13,49.8
2'F-ANA at 4 6 9 13 15,144
2'F-ANA at 4 5 6 7 11 12 14,45
2'F-ANA at 1 3 5 6 8 11 14,47.5
2'F-ANA at 1 3 4 6 11 14 15,64.7
2'F-ANA at 2 5 10 11 12 13 15,62
2'F-ANA at 2 6 7 8 9 10 11 13,150

# For quick reference, copied from above (sample 3):
Strand,E-score
ATCTACGA,0.0287
CTGTTCTA,0.0609
TCACGCGA,-0.0908
GACTCGCC,-0.242
GGGGATAA,0.18
ACTATCCG,-0.0597
ATGGATCC,0.0506
ATTTCGGG,0.103
